{"data": "Assay results pooled from the literature", "note": "Numbered parts are unrelated; each lists some results of a single study. Substitutions count along the parent as printed."}
{"data": "Series 1", "target": "XBP1, bZIP domain (human)", "method": "DHFR protein complementation", "matrix": "yeast", "notes": "single substitutions, most at no-binding floor", "baseline": "wild-type JUN-FOS pair", "direction": "higher = stronger binding", "starting sequence": "JUN, bZIP domain (human); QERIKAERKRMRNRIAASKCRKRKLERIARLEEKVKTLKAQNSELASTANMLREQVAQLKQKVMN; partner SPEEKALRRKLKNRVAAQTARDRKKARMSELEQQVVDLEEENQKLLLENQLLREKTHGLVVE"}
{"Change": "T37P", "binding fitness [natural log]": -1.51}
{"Change": "T37W", "binding fitness [natural log]": -0.662}
{"Change": "E32I", "binding fitness [natural log]": -1.42}
{"Change": "V35Q", "binding fitness [natural log]": -1.54}
{"Change": "A40K", "binding fitness [natural log]": -0.473}
{"Change": "L45H", "binding fitness [natural log]": -1.42}
{"Change": "V56P", "binding fitness [natural log]": -1.5}
{"Change": "E33W", "binding fitness [natural log]": -1.3}
{"Change": "E54C", "binding fitness [natural log]": -1.49}
{"Change": "E33S", "binding fitness [natural log]": -1.06}
{"Change": "E33I", "binding fitness [natural log]": -1.46}
{"Change": "T48S", "binding fitness [natural log]": -0.738}
{"Change": "E32M", "binding fitness [natural log]": -1.32}
{"Change": "E44C", "binding fitness [natural log]": -1.31}
{"Change": "S43W", "binding fitness [natural log]": -1.23}
{"Change": "Q41E", "binding fitness [natural log]": -0.705}
{"Change": "R53F", "binding fitness [natural log]": -1.28}
{"Change": "A29N", "binding fitness [natural log]": -0.949}
{"Change": "R53C", "binding fitness [natural log]": -1.43}
{"Change": "A40L", "binding fitness [natural log]": -0.881}
{"Change": "I28M", "binding fitness [natural log]": -0.613}
{"Change": "A40V", "binding fitness [natural log]": -1.04}
{"Change": "A46S", "binding fitness [natural log]": -0.88}
{"data": "Series 2", "target": "CCND3, cyclin fold, Cln2 fusion (human)", "method": "yeast growth competition, sequencing", "matrix": "yeast", "notes": "weak parent motif", "baseline": "not given", "direction": "higher = stronger binding", "starting sequence": "RP1L1 docking peptide (human); TLGLGPLSFTLED; partner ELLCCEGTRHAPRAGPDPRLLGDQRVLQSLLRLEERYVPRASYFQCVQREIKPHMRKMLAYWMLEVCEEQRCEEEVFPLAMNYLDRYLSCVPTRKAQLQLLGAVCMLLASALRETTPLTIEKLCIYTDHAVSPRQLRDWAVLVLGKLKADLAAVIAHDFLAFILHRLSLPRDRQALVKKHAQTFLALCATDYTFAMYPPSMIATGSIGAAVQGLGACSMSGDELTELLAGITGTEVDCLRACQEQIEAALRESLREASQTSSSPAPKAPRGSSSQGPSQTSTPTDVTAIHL"}
{"Change": "ALGLGPLSFTLED [T1A]", "normalised enrichment score": -0.382}
{"Change": "TLGLAPLSFTLED [G5A]", "normalised enrichment score": -0.514}
{"Change": "TLGAGPLSFTLED [L4A]", "normalised enrichment score": 0.0693}
{"Change": "TLGLGPLSFTLAD [E12A]", "normalised enrichment score": -0.162}
{"Change": "TLALGPLSFTLED [G3A]", "normalised enrichment score": -0.532}
{"Change": "TLGLGPLAFTLED [S8A]", "normalised enrichment score": -0.417}
{"Change": "TLGLGPASFTLED [L7A]", "normalised enrichment score": -0.205}
{"data": "Series 3", "target": "RNA binding protein fox-1 homolog 2, RRM domain, GST-SBP tag (RBFOX2, Homo sapiens, UniProt O43251-10, residues 100-194)", "method": "RNA Bind-n-Seq", "form": "RNA", "matrix": "in vitro", "concentration": "365 nM", "notes": "natural RNA segment, single round, ends assumed", "baseline": "no-protein control", "direction": "higher = stronger binding", "all sequences stand within": "GGGAGUUCUACAGUCCGACGAUC … UGGAAUUCUCGGGUGCCAA", "Residues (chain)": "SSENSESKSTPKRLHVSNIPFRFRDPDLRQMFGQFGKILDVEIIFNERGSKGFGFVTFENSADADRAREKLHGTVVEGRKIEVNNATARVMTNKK"}
{"Strand": "ACCAAAAUGGCUUAUCGUCAUUCAAAAAACCUGUGACAUAGGCAGGCCUUGGAAUUUUGCUCCUUUAGUGGUAAGCAUGGGGCAUGGUUUGCUUUGGGGGGAGGAUGUUA", "RBNS enrichment (R)": 2.61}
{"Strand": "UUUAUUCUGGGAAGAUGUUUUUCAAACUCAGAGACAAGGACUUUGGUUUUUGUAAGACAAACGAUGAUAUGAAGGCCUUUUGUAAGAAAAAAUAAAAGAUGAAGUGUGUU", "RBNS enrichment (R)": 0.627}
{"Strand": "GAGAAAAAAACACACAUCAAUUAAAGGAGACAAAAAGAGGCAGAGCGAGUAGAGAGCAGCCCUCAUUCACCACCUGGUCCCAGACGUGCUUCAGUCCUCGUCCUCUCUUU", "RBNS enrichment (R)": 0.37}
{"Strand": "UUUUAAAAUAGAGAUAGUUACAUAUUUUCCUCAUCUAGGCUGUGUCACUAUUGGGUGCAAGGAUAUCAUUGUUGGCUAGAUUCAUUUUGUAUAAUCAUGUAUCCUCUUGU", "RBNS enrichment (R)": 0.373}
{"Strand": "UUAUCACCAAACAAUAUGUUAAGUGGCUUUCCUUGGCAUCUACAGAGAAAACAUUCUAUAGCCCUCCUUCCUAGGUGUUACCAUUCACUGAAUCUUCUCUCAGAGGGAGA", "RBNS enrichment (R)": 0.51}
{"Strand": "UUACUGUGUAUCAGUUCUUUGUUAGGCAUGAACGUCUUUAUUAAUCCAUCAUUCUUUUCUUCAUUCAACAAAUAUGUAUUGAACACCUCCUAUAUGCCAGGCACUGUGCU", "RBNS enrichment (R)": 1.47}
{"Strand": "UGACUGCCAUCUUGCUCCAUGGUGGCUCUUCUGGCCUGGGACCCGGUCCACAGGAAGGGCUAGGAGCUGAAUUAAAGAUGAGAGCAUCCCUCCUGCACACUGGGGCUUCC", "RBNS enrichment (R)": 1.09}
{"Strand": "CAGUAGCUGGUGUGACUGAACAGCAAUGGGGUGGUUGGUACUCAAUGCCUAGGUGAGCCAGUGGUUCUCAAAGUAGGGUUCCCCAGGCACUGUCAGAAAUACAGUCAUAC", "RBNS enrichment (R)": 1.69}
{"Strand": "UUAUUCCCAGUAAGCUUCCAUGACCCUUUCUUGGAGGCCUUCACAGGUAAUACAGAUACUGGCACUGAUUGUAAUUAAAAUGAGAGAAAACUCUAGCGCAUCUUCUGGCA", "RBNS enrichment (R)": 2.56}
{"Strand": "GUAUAACUUAGGGAGCGAAGAAAAUGUAGGCGCGAAAGUGAAAAGUGAGGCAGCUAGUUCUUCCUAUUCCAUUCUCGACCAACCUGCCCUUUCUUAAUAUGACUAGUGGU", "RBNS enrichment (R)": 0.871}
{"Strand": "AGAUGAUGUGACAACCUCUAAUAUUUAUCUAAUAAAUAUGUAUUCAGAUGAAACCUGUAUAUUAGGUGUUCAUGUGGUUAUUUUGUAUUUAAAGAUCAAAUUAUUUGACU", "RBNS enrichment (R)": 0.283}
{"Strand": "CACCAACACAGGUUGCAGAGUGCUCAGUCCUGCUCUGCCUAGCUGGCCCCACCCCAGCUCUCUUUCUCUGGGGUACUUAGGGAGAGGAUCCUUCCUCUCCGAGGAUCCUC", "RBNS enrichment (R)": 0.43}
{"data": "Series 4", "target": "ABI1, truncated, D143A, DHFR fusion (Arabidopsis thaliana)", "method": "DHFR PCA, deep sequencing", "matrix": "yeast", "notes": "methotrexate growth selection, single substitutions", "added": "(+)-ABA 1.4 µM", "baseline": "wild-type fitted maximum", "direction": "higher = stronger binding", "starting sequence": "PYL1, truncated, DHFR fusion (Arabidopsis thaliana); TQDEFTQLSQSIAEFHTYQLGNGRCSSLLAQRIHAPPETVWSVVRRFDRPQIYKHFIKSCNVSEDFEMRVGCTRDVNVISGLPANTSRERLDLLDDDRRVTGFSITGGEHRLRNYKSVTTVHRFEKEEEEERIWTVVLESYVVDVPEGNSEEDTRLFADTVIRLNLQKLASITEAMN"}
{"Change": "N177I", "relative binding score": "40.7%"}
{"Change": "R98S", "relative binding score": "14.6%"}
{"Change": "R45F", "relative binding score": "-13%"}
{"Change": "G102V", "relative binding score": "-1.93%"}
{"Change": "L164I", "relative binding score": "21.7%"}
{"Change": "T160W", "relative binding score": "1.47%"}
{"Change": "N61F", "relative binding score": "55.4%"}
{"Change": "V161P", "relative binding score": "0.866%"}
{"Change": "V76L", "relative binding score": "34.8%"}
{"Change": "R123F", "relative binding score": "1.14%"}
{"Change": "R98Q", "relative binding score": "42.6%"}
{"Change": "I133G", "relative binding score": "78.4%"}
{"Change": "T120F", "relative binding score": "-4.58%"}
{"Change": "S140H", "relative binding score": "11.2%"}
{"Change": "A84Q", "relative binding score": "2.21%"}
{"Change": "R98D", "relative binding score": "13.6%"}
{"Change": "L29P", "relative binding score": "-6.72%"}
{"Change": "V145Y", "relative binding score": "-51.4%"}
{"Change": "T154F", "relative binding score": "-54.5%"}
{"Change": "V43T", "relative binding score": "10.5%"}
{"Change": "F47A", "relative binding score": "-0.404%"}
{"Change": "Y141H", "relative binding score": "16.7%"}
{"Change": "C25L", "relative binding score": "-5.19%"}
{"Change": "R45A", "relative binding score": "-5.95%"}
{"Change": "R113H", "relative binding score": "50.9%"}
{"data": "Series 5", "target": "Interferon regulatory factor 7, full length, phosphomimetic (IRF7, Homo sapiens, UniProt Q92985, residues 1-503, S101K/S471D/S472D/S475D/S476D/S477D/S483D/S484D/S487D)", "method": "protein-binding microarray", "form": "double-stranded DNA, one strand shown", "matrix": "in vitro", "concentration": "250 nM", "notes": "60-bp whole probe", "added": "salmon DNA 0.4 mg/ml", "baseline": "random background probes", "direction": "higher = stronger binding", "all sequences stand within": "GCCTAGCAC … GTCTTGATTCGCTTGACGCTGCTG", "Target sequence (chain)": "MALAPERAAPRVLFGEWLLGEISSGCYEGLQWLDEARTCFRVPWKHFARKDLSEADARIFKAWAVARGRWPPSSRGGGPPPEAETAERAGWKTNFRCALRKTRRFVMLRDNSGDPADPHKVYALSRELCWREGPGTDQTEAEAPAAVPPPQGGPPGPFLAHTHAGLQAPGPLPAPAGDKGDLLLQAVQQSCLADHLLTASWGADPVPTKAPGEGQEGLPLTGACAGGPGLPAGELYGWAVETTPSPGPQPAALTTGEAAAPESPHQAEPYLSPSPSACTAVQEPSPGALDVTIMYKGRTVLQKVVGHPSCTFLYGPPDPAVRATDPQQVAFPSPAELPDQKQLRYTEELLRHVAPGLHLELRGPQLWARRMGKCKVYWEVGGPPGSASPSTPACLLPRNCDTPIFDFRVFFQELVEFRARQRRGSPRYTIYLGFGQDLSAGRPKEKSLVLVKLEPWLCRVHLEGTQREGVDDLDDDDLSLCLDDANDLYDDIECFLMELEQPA"}
{"Strand": "TTAGATTTCAGTCTCGACTAGTGCTAG", "log fluorescence": "0.86 z-score"}
{"Strand": "GACGAACTGTGTCTCGAGACGTGCTAG", "log fluorescence": "-0.0552 z-score"}
{"Strand": "TTAGGTATCCTACTGCTTTAGTGCTAG", "log fluorescence": "-0.0995 z-score"}
{"Strand": "TTTTTTTTTTTTTTACTTCGGTGCTAG", "log fluorescence": "0.713 z-score"}
{"Strand": "TTAGAACTGGGGACTGGCTTAGTGCTA", "log fluorescence": "-0.322 z-score"}
{"Strand": "GACGGTTCCCGTTTCGGGACGTGCTAG", "log fluorescence": "4.55 z-score"}
{"Strand": "TTAGATATCGGGTACCGATTAGTGCTA", "log fluorescence": "0.227 z-score"}
{"Strand": "GACGGTATCCTTTTCCTGAGGTGCTAG", "log fluorescence": "0.982 z-score"}
{"Strand": "TTAGGACTGCTACGGCTTTAGTGCTAG", "log fluorescence": "-0.564 z-score"}
{"Strand": "GACGTTTTCGGTTCCGGGACGTGCTAG", "log fluorescence": "5.47 z-score"}
{"Strand": "TTAGGTCTCGGACTGGGTAAGTGCTAG", "log fluorescence": "0.387 z-score"}
{"Strand": "TTAGGTTTCGGGTTTCAGTTAGTGCTA", "log fluorescence": "11.8 z-score"}
{"Strand": "GGGAATTTAGAAAATGGAAATGTGCTA", "log fluorescence": "-0.119 z-score"}
{"Strand": "CACTCTTTCCTCACCATACTGTGCTAG", "log fluorescence": "2.19 z-score"}
{"Strand": "TTAGATTCCGGGTTTCGATTAGTGCTA", "log fluorescence": "7.4 z-score"}
{"Strand": "GACGATATCGGGACTGGATACGTGCTA", "log fluorescence": "0.0804 z-score"}
{"note": "Repeated from above (series 1):"}
{"Change": "I28M", "binding fitness [natural log]": -0.613}
{"Change": "A29N", "binding fitness [natural log]": -0.949}
{"Change": "T37P", "binding fitness [natural log]": -1.51}
{"Change": "E33I", "binding fitness [natural log]": -1.46}
{"Change": "V56P", "binding fitness [natural log]": -1.5}
{"Change": "E44C", "binding fitness [natural log]": -1.31}
{"Change": "A40V", "binding fitness [natural log]": -1.04}
{"Change": "A40L", "binding fitness [natural log]": -0.881}
{"Change": "Q41E", "binding fitness [natural log]": -0.705}
